Assay results pooled from the literature.
Every numbered part comes from another study and shows a few of its results, in no order.
UniProt Q14680, sequence (whole entry, looked up): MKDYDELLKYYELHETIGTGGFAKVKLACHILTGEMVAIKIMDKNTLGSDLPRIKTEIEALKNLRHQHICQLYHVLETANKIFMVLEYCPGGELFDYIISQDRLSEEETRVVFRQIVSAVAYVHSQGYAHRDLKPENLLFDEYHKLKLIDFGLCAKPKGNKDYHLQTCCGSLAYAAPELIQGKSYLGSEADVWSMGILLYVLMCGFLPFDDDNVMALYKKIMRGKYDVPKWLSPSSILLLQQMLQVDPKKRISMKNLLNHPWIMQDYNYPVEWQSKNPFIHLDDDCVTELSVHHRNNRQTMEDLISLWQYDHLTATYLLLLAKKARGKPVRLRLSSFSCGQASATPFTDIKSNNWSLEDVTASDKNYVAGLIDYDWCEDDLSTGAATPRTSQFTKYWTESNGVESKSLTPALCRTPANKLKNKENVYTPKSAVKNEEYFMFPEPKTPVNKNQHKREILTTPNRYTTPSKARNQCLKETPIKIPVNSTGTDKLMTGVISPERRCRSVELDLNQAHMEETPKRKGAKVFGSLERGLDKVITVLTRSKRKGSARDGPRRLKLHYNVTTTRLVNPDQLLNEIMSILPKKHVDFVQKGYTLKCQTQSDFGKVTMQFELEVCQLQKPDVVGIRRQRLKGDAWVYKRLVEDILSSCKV
UniProt Q15349, sequence (whole entry, looked up): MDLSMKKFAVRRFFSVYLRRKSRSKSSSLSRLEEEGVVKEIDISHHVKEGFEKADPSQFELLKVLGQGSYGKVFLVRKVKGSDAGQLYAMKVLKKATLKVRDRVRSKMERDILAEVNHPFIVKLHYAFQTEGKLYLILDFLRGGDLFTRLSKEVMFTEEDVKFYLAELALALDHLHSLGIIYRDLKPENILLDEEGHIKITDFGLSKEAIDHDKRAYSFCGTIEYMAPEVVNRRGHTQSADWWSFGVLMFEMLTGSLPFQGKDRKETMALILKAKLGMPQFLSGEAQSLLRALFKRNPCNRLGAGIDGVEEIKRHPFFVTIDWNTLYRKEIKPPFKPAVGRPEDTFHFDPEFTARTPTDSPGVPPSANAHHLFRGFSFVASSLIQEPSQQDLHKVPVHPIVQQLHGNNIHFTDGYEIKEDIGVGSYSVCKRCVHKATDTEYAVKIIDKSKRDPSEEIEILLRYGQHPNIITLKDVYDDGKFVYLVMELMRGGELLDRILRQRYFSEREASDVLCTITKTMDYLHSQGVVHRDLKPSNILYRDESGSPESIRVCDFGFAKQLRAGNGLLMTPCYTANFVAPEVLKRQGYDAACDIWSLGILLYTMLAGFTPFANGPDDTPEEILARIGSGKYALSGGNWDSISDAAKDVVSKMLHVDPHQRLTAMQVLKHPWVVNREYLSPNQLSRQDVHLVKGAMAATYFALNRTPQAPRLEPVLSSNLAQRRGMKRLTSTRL
UniProt P45985, sequence (whole entry, looked up): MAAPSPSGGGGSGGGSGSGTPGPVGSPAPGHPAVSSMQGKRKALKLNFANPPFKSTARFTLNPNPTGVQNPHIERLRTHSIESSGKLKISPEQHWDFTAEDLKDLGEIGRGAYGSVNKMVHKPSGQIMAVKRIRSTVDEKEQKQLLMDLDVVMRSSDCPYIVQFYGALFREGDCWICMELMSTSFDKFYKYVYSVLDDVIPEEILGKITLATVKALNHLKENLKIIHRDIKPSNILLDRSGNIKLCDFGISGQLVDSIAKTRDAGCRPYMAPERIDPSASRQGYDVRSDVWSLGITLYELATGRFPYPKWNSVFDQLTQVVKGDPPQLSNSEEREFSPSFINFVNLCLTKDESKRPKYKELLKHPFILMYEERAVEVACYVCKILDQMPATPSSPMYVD
UniProt Q8N752, sequence (whole entry, looked up): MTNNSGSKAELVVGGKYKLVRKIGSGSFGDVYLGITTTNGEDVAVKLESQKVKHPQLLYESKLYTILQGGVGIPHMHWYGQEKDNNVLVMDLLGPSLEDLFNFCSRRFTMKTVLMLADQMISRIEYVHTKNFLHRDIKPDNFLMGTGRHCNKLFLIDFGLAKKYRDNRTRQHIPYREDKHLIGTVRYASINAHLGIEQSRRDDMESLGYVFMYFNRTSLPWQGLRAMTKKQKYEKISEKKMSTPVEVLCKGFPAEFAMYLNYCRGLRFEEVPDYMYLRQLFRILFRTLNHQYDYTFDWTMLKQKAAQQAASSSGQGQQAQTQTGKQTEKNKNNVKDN
UniProt P48730, sequence (whole entry, looked up): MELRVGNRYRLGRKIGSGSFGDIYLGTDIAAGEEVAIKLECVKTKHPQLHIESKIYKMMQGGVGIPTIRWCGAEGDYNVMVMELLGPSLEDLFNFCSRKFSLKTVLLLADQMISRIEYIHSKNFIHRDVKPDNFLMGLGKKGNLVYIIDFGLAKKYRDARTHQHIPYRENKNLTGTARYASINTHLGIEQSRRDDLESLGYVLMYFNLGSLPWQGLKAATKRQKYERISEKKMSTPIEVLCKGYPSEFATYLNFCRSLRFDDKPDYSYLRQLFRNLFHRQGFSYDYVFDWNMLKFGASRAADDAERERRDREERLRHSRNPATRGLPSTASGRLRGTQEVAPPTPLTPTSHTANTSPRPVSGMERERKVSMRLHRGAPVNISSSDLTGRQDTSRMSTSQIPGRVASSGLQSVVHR

Block 1
Cell line: A-375
Concentration: 100 µM
Time: 36 h
Compound | viability [%]
OC[C@H]1O[C@@H](O[C@@H]2[C@@H](CO)OC(O)(CO)[C@H]2O)[C@H](O)[C@@H](O)[C@H]1O (mixture of isomers) | 97.4
Cc1cc(C(C#N)c2ccc(Cl)cc2)c(Cl)cc1NC(=O)c1cc(I)cc(I)c1O (stereo not drawn) | 18.3
Nc1nc(O)c2ncn(COC(CO)CO)c2n1 | 112
O=C(CCCN1CC=C(n2c(=O)[nH]c3ccccc32)CC1)c1ccc(F)cc1 | 36.2
CN1C[C@@H]2C[C@H]1CN2c1cc2c(cc1F)c(=O)c(C(=O)O)cn2C1CC1 | 83.4
Cc1c(Nc2ncccc2C(=O)O)cccc1C(F)(F)F | 67.7
CCN(CC)CCCC(C)Nc1ccnc2cc(Cl)ccc12 (stereo not drawn) | -2.56
Cc1nnc(C(C)C)n1[C@@H]1C[C@H]2CC[C@@H](C1)N2CC[C@H](NC(=O)C1CCC(F)(F)CC1)c1ccccc1 | 106
Cc1cn([C@H]2C=C[C@@H](CO)O2)c(=O)[nH]c1=O | 101

Block 2
SMILES: CN([C@@H]1CCc2c(CC(=O)O)c3ccccc3n2C1)S(=O)(=O)c1ccc(F)cc1
Effect on: cell-free assay
Method: competition with immobilised ligand
Concentration: 1 µM
target | remaining binding
CSNK1D (Homo sapiens, UniProt P48730) | 100%
Ribosomal protein S6 kinase alpha-2, N-terminal kinase domain (RPS6KA2, Homo sapiens, UniProt Q15349) | 84%
EGFR (Homo sapiens, UniProt P00533, del747-750/T751S) | 100%
MAP2K4 (Homo sapiens, UniProt P45985) | 100%
CSNK1A1L (Homo sapiens, UniProt Q8N752) | 100%
MET (Homo sapiens, UniProt P08581, M1250T) | 100%
MELK (Homo sapiens, UniProt Q14680) | 93%

Block 3
Target: Serine/threonine-protein kinase PAK 4 (PAK4, Homo sapiens, UniProt O96013)
UniProt O96013, sequence (whole entry, looked up): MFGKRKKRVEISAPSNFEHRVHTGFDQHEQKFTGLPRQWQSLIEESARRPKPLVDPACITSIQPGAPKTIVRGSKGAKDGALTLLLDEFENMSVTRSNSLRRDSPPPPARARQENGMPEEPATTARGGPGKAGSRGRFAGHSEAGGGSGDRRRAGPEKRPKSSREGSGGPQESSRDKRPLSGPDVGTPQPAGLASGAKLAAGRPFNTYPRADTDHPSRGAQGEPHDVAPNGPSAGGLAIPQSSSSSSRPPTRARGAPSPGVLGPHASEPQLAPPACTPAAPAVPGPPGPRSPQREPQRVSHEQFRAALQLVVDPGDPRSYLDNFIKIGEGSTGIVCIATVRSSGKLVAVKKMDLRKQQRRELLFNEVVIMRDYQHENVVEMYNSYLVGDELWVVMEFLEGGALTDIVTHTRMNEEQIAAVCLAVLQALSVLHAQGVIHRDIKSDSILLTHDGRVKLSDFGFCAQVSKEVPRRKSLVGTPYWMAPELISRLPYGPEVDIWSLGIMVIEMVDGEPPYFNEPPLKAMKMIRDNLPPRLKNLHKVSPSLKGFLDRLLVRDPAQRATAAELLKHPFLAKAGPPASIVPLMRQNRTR
Effect on: enzyme activity
Mode: inhibitor
Concentration: 0.5 µM
Reference: control
SMILES | remaining activity
COc1ccc(CNC(=O)Nc2ncc([N+](=O)[O-])s2)cc1 | 115%
CN(C)c1ccc(C=C2C(=O)Nc3ccccc32)cc1 | 101%
O=C(O)c1ccc2c3c1cccc3c(=O)n1c3ccccc3nc21 | 114%
C#Cc1cccc(Nc2ncnc3cc(OCCOC)c(OCCOC)cc23)c1 | 91.8%
CCOC(=O)c1c(C)[nH]c(/C=C2\C(=O)Nc3ccccc32)c1C | 71.8%
O=c1c2ccccc2[nH]c(=S)n1CCN1CCC(=C(c2ccc(F)cc2)c2ccc(F)cc2)CC1 | 101%
CNC(=O)c1cc(Oc2ccc(NC(=O)Nc3ccc(Cl)c(C(F)(F)F)c3)cc2)ccn1 | 91.8%
Cc1ccc(Nc2nccc(N(C)c3ccc4c(C)n(C)nc4c3)n2)cc1S(N)(=O)=O | 92%
O=C1NC(=O)C(c2cn(CCCO)c3ncccc23)=C1c1cnccn1 | 111%
Cc1ccc(NC(=O)c2ccc(CN3CCN(C)CC3)cc2)cc1Nc1nc(-c2cccnc2)cs1 | 103%
Cc1nc(-c2ccccc2)c(-c2ccncc2)o1 | 101%
O=C(CCCc1ccc(-c2ccccc2F)cc1)Nc1ccc(O)cc1 | 95.4%
OCC(O)CCON=C1C(c2c(O)[nH]c3ccccc23)=Nc2ccccc21 (stereo not drawn) | 84.5%
Cn1c2ccccc2c2c3c(c4c5ccccc5n(CCC#N)c4c21)CNC3=O | 44%
CO[C@H]1C[C@@H]2CC[C@@H](C)[C@@](O)(O2)C(=O)C(=O)N2CCCC[C@H]2C(=O)O[C@H]([C@H](C)C[C@@H]2CC[C@@H](O)[C@H](OC)C2)CC(=O)[C@H](C)/C=C(\C)[C@@H](O)[C@@H](OC)C(=O)[C@H](C)C[C@H](C)/C=C/C=C/C=C/1C | 97.1%

Block 4
Target: Calcium/calmodulin-dependent protein kinase type II subunit alpha (CAMK2A, Homo sapiens, UniProt Q9UQM7)
UniProt Q9UQM7, sequence (whole entry, looked up): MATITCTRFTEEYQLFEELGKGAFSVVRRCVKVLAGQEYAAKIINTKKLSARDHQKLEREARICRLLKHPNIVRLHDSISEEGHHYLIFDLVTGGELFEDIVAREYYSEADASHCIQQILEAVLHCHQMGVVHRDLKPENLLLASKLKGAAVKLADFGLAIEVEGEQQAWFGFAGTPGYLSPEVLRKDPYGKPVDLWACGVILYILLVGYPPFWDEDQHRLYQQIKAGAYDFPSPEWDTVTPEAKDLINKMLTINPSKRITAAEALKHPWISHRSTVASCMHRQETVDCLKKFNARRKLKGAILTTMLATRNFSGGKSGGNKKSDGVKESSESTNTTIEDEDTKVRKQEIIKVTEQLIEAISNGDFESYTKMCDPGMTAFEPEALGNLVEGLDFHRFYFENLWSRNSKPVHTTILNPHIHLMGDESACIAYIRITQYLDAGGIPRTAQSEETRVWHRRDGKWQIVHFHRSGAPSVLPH
Effect on: enzyme activity
Mode: inhibitor
Concentration: 10 µM
SMILES | inhibition
Cc1onc(-c2c(F)cccc2Cl)c1C(=O)N[C@@H]1C(=O)N2[C@@H]1SC(C)(C)[C@@H]2C(=O)O | -8%
C[C@]1(O)C[C@@H](O)[C@@H]2C=CO[C@@H](O[C@@H]3O[C@H](CO)[C@@H](O)[C@H](O)[C@H]3O)[C@@H]21 | -36%
O[C@H]1[C@H](O)[C@H](O)[C@@H](O)[C@H](O)[C@H]1O | 34%
CCCCCCCCC/C=C/C(=O)CCc1ccc(O)c(OC)c1 | -30%
NS(=O)(=O)c1ccc(N2CCCCS2(=O)=O)cc1 | -18%

Excerpt of the above (block 3):
SMILES | remaining activity
O=C(O)c1ccc2c3c1cccc3c(=O)n1c3ccccc3nc21 | 114%
C#Cc1cccc(Nc2ncnc3cc(OCCOC)c(OCCOC)cc23)c1 | 91.8%
CCOC(=O)c1c(C)[nH]c(/C=C2\C(=O)Nc3ccccc32)c1C | 71.8%
O=c1c2ccccc2[nH]c(=S)n1CCN1CCC(=C(c2ccc(F)cc2)c2ccc(F)cc2)CC1 | 101%
CNC(=O)c1cc(Oc2ccc(NC(=O)Nc3ccc(Cl)c(C(F)(F)F)c3)cc2)ccn1 | 91.8%
